Earlier results as cited in several papers.
Each line is one published result; not all experiments were run side by side. ± marks the error that the study gave.
Sequence of UniProt Q9UQ88 (whole entry, looked up): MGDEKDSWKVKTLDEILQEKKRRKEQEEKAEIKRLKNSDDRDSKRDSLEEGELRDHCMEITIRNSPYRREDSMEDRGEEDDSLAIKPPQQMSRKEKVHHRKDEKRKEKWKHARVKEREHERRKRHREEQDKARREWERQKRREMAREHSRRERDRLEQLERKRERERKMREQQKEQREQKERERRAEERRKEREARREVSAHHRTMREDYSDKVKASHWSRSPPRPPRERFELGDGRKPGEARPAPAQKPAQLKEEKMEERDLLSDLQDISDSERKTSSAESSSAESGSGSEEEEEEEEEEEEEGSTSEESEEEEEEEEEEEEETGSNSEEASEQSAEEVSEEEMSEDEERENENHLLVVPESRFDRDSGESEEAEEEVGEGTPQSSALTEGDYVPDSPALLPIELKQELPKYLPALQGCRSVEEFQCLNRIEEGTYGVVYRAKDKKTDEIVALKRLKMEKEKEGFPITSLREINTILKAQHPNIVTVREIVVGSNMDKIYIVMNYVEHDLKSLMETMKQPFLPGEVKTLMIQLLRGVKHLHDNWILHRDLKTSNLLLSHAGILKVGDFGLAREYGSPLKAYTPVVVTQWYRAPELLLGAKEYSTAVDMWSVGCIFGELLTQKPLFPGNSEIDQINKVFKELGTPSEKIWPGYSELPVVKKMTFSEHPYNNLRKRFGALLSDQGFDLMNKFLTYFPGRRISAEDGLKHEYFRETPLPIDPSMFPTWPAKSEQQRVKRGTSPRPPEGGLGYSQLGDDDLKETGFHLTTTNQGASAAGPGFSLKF
Sequence of UniProt P42336 (whole entry, unmodified, looked up): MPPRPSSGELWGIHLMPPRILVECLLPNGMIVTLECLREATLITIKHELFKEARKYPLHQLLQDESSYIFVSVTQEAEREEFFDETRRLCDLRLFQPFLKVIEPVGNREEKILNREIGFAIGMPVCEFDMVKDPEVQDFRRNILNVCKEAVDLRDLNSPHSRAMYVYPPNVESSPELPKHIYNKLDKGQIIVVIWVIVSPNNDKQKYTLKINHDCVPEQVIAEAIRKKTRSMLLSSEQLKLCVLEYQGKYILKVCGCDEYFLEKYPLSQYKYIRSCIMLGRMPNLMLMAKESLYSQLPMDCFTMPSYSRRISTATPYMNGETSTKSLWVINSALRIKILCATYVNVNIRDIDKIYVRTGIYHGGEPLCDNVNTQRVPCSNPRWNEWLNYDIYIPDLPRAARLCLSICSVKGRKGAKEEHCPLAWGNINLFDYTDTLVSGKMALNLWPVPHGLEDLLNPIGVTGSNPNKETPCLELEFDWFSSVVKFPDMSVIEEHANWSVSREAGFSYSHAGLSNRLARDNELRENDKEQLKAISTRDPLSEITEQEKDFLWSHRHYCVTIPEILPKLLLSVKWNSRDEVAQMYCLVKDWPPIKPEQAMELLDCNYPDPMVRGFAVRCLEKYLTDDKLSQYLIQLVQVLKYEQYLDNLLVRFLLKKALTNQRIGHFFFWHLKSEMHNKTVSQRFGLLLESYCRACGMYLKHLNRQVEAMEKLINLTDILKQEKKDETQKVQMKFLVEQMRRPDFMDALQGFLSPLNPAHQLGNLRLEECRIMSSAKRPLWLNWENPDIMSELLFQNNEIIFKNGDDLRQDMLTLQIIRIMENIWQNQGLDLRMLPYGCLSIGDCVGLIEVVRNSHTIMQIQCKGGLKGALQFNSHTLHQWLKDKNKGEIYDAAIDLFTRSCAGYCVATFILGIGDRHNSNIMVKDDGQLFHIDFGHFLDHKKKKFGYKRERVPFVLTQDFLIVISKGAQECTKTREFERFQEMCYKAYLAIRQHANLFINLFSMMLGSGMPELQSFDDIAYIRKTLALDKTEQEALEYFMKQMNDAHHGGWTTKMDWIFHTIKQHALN

| SMILES | tested on | test | system | setting | scale | endpoint | value |
| --- | --- | --- | --- | --- | --- | --- | --- |
| CC(=O)Nc1nnc(S(N)(=O)=O)s1 | Enterococcus |  | vancomycin-resistant |  |  | MIC | 9 µM |
| Oc1ccc(-c2nc(-c3ccc(OC4CCCC4)cc3)no2)cc1 | Lactobacillus reuteri |  | HM-102 |  |  | MIC | > 128 µg/mL |
| OCc1cc(Cl)c(Nc2nc3c(Nc4ccc(C(F)(F)F)cc4)ncnc3s2)c(Cl)c1 | TRPV1 | calcium flux, antagonist | HEK293 | added: capsaicin |  | IC50 | 1 nM |
| CCCN(CCC)S(=O)(=O)c1ccc(C(=O)O)cc1 |  | substrate uptake, inhibitor | human kidney slices | 15 min, added: adefovir 0.1 µM |  | Ki | 12600 nM |
| CO/N=C(\C(=O)N[C@@H]1C(=O)N2C(C(=O)O)=C(COC(C)=O)CS[C@H]12)c1csc(N)n1 | Mycolicibacterium smegmatis |  | mc2155 |  |  | MIC | 100 µg/mL |
| O=C(NCCc1ccc(Cl)c(Cl)c1)Nc1cccc2cnccc12 | TRPV1 | calcium flux, antagonist | HEK293 | added: capsaicin |  | IC50 | 10 nM |
| CC[C@@H](CO)NCCN[C@@H](CC)CO | Mycolicibacterium smegmatis |  | mc2155 |  |  | MIC | 0.5 µg/mL |
| CCN1CCN(C(=O)N[C@@H](C(=O)N[C@@H]2C(=O)N3[C@@H]2SC(C)(C)[C@@H]3C(=O)O)c2ccccc2)C(=O)C1=O | Escherichia coli |  | ATCC 25922 |  |  | MIC | 1 to 4 µg/mL |
| C[C@H]1c2cccc(O)c2C(=O)C2=C(O)[C@]3(O)C(=O)C(C(N)=O)=C(O)[C@@H](N(C)C)[C@@H]3[C@@H](O)[C@@H]21 | Mycolicibacterium smegmatis |  | mc2155 |  |  | MIC | 0.2 µg/mL |
| Nc1cc(C(F)(F)F)c(-c2nc(N3CCOCC3)nc(N3CCOCC3)n2)cn1 | Cyclin-dependent kinase 11A (CDK11A, Homo sapiens, UniProt Q9UQ88) | enzyme activity |  | 10 µM | reference: untreated | remaining activity | 100% |
| CC[C@H]1OC(=O)[C@H](C)[C@@H](O[C@H]2C[C@@](C)(OC)[C@@H](O)[C@H](C)O2)[C@H](C)[C@@H](O[C@@H]2O[C@H](C)C[C@H](N(C)C)[C@H]2O)[C@](C)(OC)C[C@@H](C)C(=O)[C@H](C)[C@@H](O)[C@]1(C)O | Mycolicibacterium smegmatis |  | mc2155 |  |  | MIC | 2 µg/mL |
| O=C(C1CCOCC1)N1CC(=O)N2CCc3ccccc3[C@@H]2C1 | TRPM channel TRPM_PZQ (Schistosoma mansoni, UniProt A0A5K4F0X5) |  |  |  |  | EC50 | 8100 ± 700 nM |
| CC1(C)S[C@@H]2[C@H](NC(=O)[C@H](N)c3ccccc3)C(=O)N2[C@H]1C(=O)O | Bacillus cereus |  |  |  |  | MIC | 0.016 to 32 µg/mL |
| CCc1c(Cl)c(O)c(Cl)c(O)c1C(=O)O[C@H]1[C@H](O)[C@H](OC)[C@H](OC/C2=C\C=C\C[C@H](O)/C(C)=C/[C@H](CC)[C@@H](O[C@@H]3OC(C)(C)[C@@H](OC(=O)C(C)C)[C@H](O)[C@@H]3O)/C(C)=C/C(C)=C/C[C@@H]([C@@H](C)O)OC2=O)O[C@@H]1C | Corynebacterium |  | HM-784 |  |  | MIC | < 0.06 µg/mL |
| FC(F)(F)c1ccc(Oc2ccc(-c3noc(-c4ccc5[nH]ccc5c4)n3)cc2)cc1 | Veillonella sp. |  | HM-49 |  |  | MIC | > 128 µg/mL |
| NNC(=O)c1ccncc1 | Mycolicibacterium smegmatis |  | mc2155 |  |  | MIC | 8 µg/mL |
| C=CC(=O)N1CCC(C(=O)NCC(=O)N2CCN(c3nc(-c4cnc(N)nc4C(F)F)nc(N4CCOCC4)n3)CC2)CC1 | Phosphatidylinositol 4,5-bisphosphate 3-kinase catalytic subunit alpha isoform (PIK3CA, Homo sapiens, UniProt P42336, M1043I) | kinase activity |  | 1 µM |  | remaining activity | 0% |
| CO[C@@H]1[C@@H](OC(N)=O)[C@@H](O)[C@H](Oc2ccc3c(O)c(NC(=O)c4ccc(O)c(CC=C(C)C)c4)c(=O)oc3c2C)OC1(C)C | Mycolicibacterium smegmatis |  | mc2155 |  |  | MIC | 8 µg/mL |
| Oc1ccc(-c2nc(-c3ccc(OC4CCCC4)cc3)no2)cc1 | Veillonella sp. |  | HM-49 |  |  | MIC | > 128 µg/mL |
| Cc1c(C#N)cccc1[C@@H](C)Nc1nnc(C)c2cnc(N3CCOCC3)cc12 | NCI-H1666 | ERK phosphorylation, In-Cell Western, measured: phospho-ERK |  |  |  | IC50 | 24.7 ± 12 nM |
| CO[C@H]1/C=C/O[C@@]2(C)Oc3c(C)c(O)c4c(O)c(c(/C=N/N5CCN(C)CC5)c(O)c4c3C2=O)NC(=O)/C(C)=C\C=C\[C@H](C)[C@H](O)[C@@H](C)[C@@H](O)[C@@H](C)[C@H](OC(C)=O)[C@@H]1C | Escherichia coli |  | ATCC 25922 |  |  | MIC | 4 to 16 µg/mL |
| CC1(C)S[C@@H]2[C@H](NC(=O)[C@H](N)c3ccccc3)C(=O)N2[C@H]1C(=O)O | Enterobacter cloacae |  | clinical isolate RKI-No_571/13 |  |  | MIC | > 16 µg/mL |
| NCC[C@H](O)C(=O)N[C@@H]1C[C@H](N)[C@@H](O[C@H]2O[C@H](CN)[C@@H](O)[C@H](O)[C@H]2O)[C@H](O)[C@H]1O[C@H]1O[C@H](CO)[C@@H](O)[C@H](N)[C@H]1O | Escherichia coli |  | ATCC 25922 |  |  | MIC | 0.5 to 4 µg/mL |
| CNC(C)C1CCC(N)C(OC2C(N)CC(N)C(OC3OCC(C)(O)C(NC)C3O)C2O)O1 (stereo not shown) | Klebsiella pneumoniae |  | clinical isolate RKI-No_95/16 |  |  | MIC | ≤ 0.5 µg/mL |
| CO/N=C(\C(=O)N[C@@H]1C(=O)N2C(C(=O)O)=C(CSc3nc(=O)c(=O)[nH]n3C)CS[C@H]12)c1csc(N)n1 | Escherichia coli |  | ATCC 25922 |  |  | MIC | 0.03 to 0.12 µg/mL |
| C[C@H]1COCCN1c1nc(-c2cnc(N)cc2C(F)F)nc(N2CCOCC2)n1 | SUP-T1 |  |  |  |  | GI50 | 522 nM |
| CNC(C)C1CCC(N)C(OC2C(N)CC(N)C(OC3OCC(C)(O)C(NC)C3O)C2O)O1 (stereo not shown) | Escherichia coli |  | ATCC BAA-2469 |  |  | MIC | > 256 µg/mL |
| CCc1c(Cl)c(O)c(Cl)c(O)c1C(=O)O[C@H]1[C@H](O)[C@H](OC)[C@H](OC/C2=C\C=C\C[C@H](O)/C(C)=C/[C@H](CC)[C@@H](O[C@@H]3OC(C)(C)[C@@H](OC(=O)C(C)C)[C@H](O)[C@@H]3O)/C(C)=C/C(C)=C/C[C@@H]([C@@H](C)O)OC2=O)O[C@@H]1C | Bifidobacterium longum |  | HM-846 |  |  | MIC | < 0.01 µg/mL |

For quick reference, copied from above:
| SMILES | tested on | test | system | setting | scale | endpoint | value |
| --- | --- | --- | --- | --- | --- | --- | --- |
| O=C(NCCc1ccc(Cl)c(Cl)c1)Nc1cccc2cnccc12 | TRPV1 | calcium flux, antagonist | HEK293 | added: capsaicin |  | IC50 | 10 nM |
| Oc1ccc(-c2nc(-c3ccc(OC4CCCC4)cc3)no2)cc1 | Veillonella sp. |  | HM-49 |  |  | MIC | > 128 µg/mL |
